{"data": "Published values gathered from unrelated publications", "note": "Numbered parts are unrelated; each lists some results of a single study."}
{"data": "Block 1", "target": "Phosphate system positive regulatory protein PHO4, full length, GST-tagged (PHO4, Saccharomyces cerevisiae, UniProt P07270, residues 1-312)", "method": "competition protein-binding microarray", "form": "double-stranded DNA, one strand shown", "sample": "in vitro", "concentration": "2 µM", "notes": "whole 60-bp probe, lowest competitor level", "together with": "Cbf1 competitor, 0.05 µM", "reading": "higher = stronger binding", "constant ends, left off below": "… GTCTTGATTCGCTTGACGCTGCTG", "Construct (chain)": "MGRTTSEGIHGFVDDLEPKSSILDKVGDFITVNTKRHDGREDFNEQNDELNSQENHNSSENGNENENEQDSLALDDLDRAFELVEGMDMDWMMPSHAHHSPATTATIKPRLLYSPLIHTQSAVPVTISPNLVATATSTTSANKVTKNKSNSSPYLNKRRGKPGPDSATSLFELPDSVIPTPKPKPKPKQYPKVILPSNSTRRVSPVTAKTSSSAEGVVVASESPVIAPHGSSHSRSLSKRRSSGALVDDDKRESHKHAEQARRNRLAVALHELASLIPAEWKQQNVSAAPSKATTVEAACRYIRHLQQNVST"}
{"Strand": "CGTCCTAGTGATTGTCACTAGACTTCCATGAGGAAG", "fluorescence intensity [a.u.]": 3990}
{"Strand": "TAACATGCAGTATCGCACGGCGGGCCGAAAGTCGGA", "fluorescence intensity [a.u.]": 5710}
{"Strand": "GAAATAAAAGTACCTTCCGTGATGGTCTTGGTACCA", "fluorescence intensity [a.u.]": 3470}
{"Strand": "CCAGTCCCTCAGCACCACGTGGGACTTAGGGGCAAA", "fluorescence intensity [a.u.]": 15800}
{"Strand": "CTTCTGTAAATTTGTCACAGGACTTGACGCGCCCCG", "fluorescence intensity [a.u.]": 3080}
{"Strand": "TGCGCAACAACTTTTCACGTGTTGTTATGTCTAGAA", "fluorescence intensity [a.u.]": 13400}
{"Strand": "AAGGACTCTAACTGGCACGTCTGGTATAGCGGACAG", "fluorescence intensity [a.u.]": 6070}
{"Strand": "AAAGCGGTAATTTGAAGAGTGGGTGCAGATATCTAT", "fluorescence intensity [a.u.]": 4400}
{"Strand": "CTTCTGTAAATTTGTCACTGTACTTGACGCGCCCCG", "fluorescence intensity [a.u.]": 3540}
{"Strand": "TGCGCAACAACTTGCACCGTGGGTGTATGTCTAGAA", "fluorescence intensity [a.u.]": 7600}
{"data": "Block 2", "target": "Histone acetyltransferase KAT6A, winged helix 1, GST fusion (KAT6A, Homo sapiens, UniProt Q92794, residues 1-85)", "method": "protein binding microarray", "form": "double-stranded DNA, one strand shown", "sample": "in vitro", "concentration": "not given", "notes": "8-mer, flanks averaged, mean of 2 arrays, mostly near background", "relative to": "not given", "reading": "higher = stronger binding", "Construct (chain)": "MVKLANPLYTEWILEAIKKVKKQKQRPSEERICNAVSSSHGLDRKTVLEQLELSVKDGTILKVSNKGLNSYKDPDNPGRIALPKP"}
{"Strand": "AGGGTCGC", "E-score": 0.0761}
{"Strand": "TAGTGTCA", "E-score": 0.0182}
{"Strand": "GCTCCACC", "E-score": -0.0555}
{"Strand": "CTGAGTGC", "E-score": -0.0887}
{"Strand": "ATCTACAC", "E-score": -0.191}
{"Strand": "AGCGACTG", "E-score": 0.0314}
{"Strand": "CCAGATCC", "E-score": -0.198}
{"data": "Block 3", "target": "Interferon regulatory factor 7, full length, phosphomimetic (IRF7, Homo sapiens, UniProt Q92985, residues 1-503, S101K/S471D/S472D/S475D/S476D/S477D/S483D/S484D/S487D)", "method": "protein-binding microarray", "form": "double-stranded DNA, one strand shown", "sample": "in vitro", "concentration": "250 nM", "notes": "60-bp whole probe", "together with": "salmon DNA 0.4 mg/ml", "relative to": "random background probes", "reading": "higher = stronger binding", "constant ends, left off below": "GCCTAGCAC … GTCTTGATTCGCTTGACGCTGCTG", "Target sequence (chain)": "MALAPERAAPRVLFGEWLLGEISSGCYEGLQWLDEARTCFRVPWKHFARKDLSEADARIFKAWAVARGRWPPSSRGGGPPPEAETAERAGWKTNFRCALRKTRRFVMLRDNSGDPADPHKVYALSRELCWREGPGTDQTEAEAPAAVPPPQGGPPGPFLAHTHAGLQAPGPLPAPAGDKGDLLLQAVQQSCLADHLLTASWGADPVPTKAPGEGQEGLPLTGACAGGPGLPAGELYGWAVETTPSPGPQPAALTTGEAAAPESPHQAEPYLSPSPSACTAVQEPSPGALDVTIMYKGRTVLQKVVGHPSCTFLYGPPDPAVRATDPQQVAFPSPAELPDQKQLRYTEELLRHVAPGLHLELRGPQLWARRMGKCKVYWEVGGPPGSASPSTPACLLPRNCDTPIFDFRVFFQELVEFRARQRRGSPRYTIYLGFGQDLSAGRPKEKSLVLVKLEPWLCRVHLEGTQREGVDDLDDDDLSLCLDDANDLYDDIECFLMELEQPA"}
{"Strand": "AGACTTCTCCATTTTTCTAGGTGCTAG", "log fluorescence [z-score]": 0.341}
{"Strand": "TTAGGTTTCCTTATCCTATAGTGCTAG", "log fluorescence [z-score]": 3.58}
{"Strand": "TTAAGTCTCCTTATCCTTTAGTGCTAG", "log fluorescence [z-score]": 0.533}
{"Strand": "TCAGTTCTAAATATCTTACTGTGCTAG", "log fluorescence [z-score]": 0.845}
{"Strand": "TTAGAACTGAGGCTGGATTAGTGCTAG", "log fluorescence [z-score]": -0.81}
{"Strand": "GACAAACTGAGTATCGAGACGTGCTAG", "log fluorescence [z-score]": 0.111}
{"Strand": "TCATGCCTATTTTTCCCACTGTGCTAG", "log fluorescence [z-score]": 0.914}
{"Strand": "GACGGACTGGGGTATCGGGAAGTGCTA", "log fluorescence [z-score]": -0.707}
{"Strand": "TGAGGTATCCTACTGCTTTAGTGCTAG", "log fluorescence [z-score]": -0.515}
{"Strand": "CACGGTTTCGGGTTTCGGGACGTGCTA", "log fluorescence [z-score]": 12.1}
{"Strand": "GACGGACTGCTACTGCTGCCGTGCTAG", "log fluorescence [z-score]": -0.864}
{"data": "Other studies, line by line"}
{"Molecule": "PhoQ, residues 284 288 289 292 302 303 SVTLVV", "target": "PhoP, residues 12 14 15 18 19 LHHSG (Escherichia coli, UniProt P23836)", "assay": "Sort-seq, measured: YFP reporter", "test system": "E. coli", "setting": "PhoQ-PhoP variant library, together with: 10 µM Mg2+", "scale": "relative to: high Mg2+ state, higher = stronger signaling", "measurement": "fold induction", "result": 6.38}
{"note": "Excerpt of the above (block 3):"}
{"Strand": "AGACTTCTCCATTTTTCTAGGTGCTAG", "log fluorescence [z-score]": 0.341}
{"Strand": "TTAGGTTTCCTTATCCTATAGTGCTAG", "log fluorescence [z-score]": 3.58}
{"Strand": "TTAAGTCTCCTTATCCTTTAGTGCTAG", "log fluorescence [z-score]": 0.533}
